Measurements collected from several papers.
A part holds a random share of what one study measured. Substitutions count along the parent as printed.

Series 1 — technique: RNA Bind-n-Seq; molecule type: RNA; sample: in vitro; concentration: 365 nM; reference: no-protein control; direction: higher = stronger binding
Target: RNA binding protein fox-1 homolog 2, RRM domain, GST-SBP tag (RBFOX2, Homo sapiens, UniProt O43251-10, residues 100-194)
Notes: natural RNA segment, single round, ends assumed
Constant ends, left off below: GGGAGUUCUACAGUCCGACGAUC … UGGAAUUCUCGGGUGCCAA
Target sequence (chain): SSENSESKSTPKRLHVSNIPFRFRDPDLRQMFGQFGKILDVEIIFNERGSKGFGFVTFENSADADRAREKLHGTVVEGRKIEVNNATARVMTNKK
| Oligonucleotide | RBNS enrichment (R) |
| --- | --- |
| AUGAUACCAAAUUCAGGGGUGUCACAGCCAUUUUGUUCUGCCCUGCAAGUUUUAGAUCCAAUCUGCCUCAACAGUCAAUCAGUGUUCAUAUUUAUGGCCAGGCAUUCUAU | 0.777 |
| GCCGCUCUUCUGUCAUCCCGCUCCUGCUGAAACACCUCCCAGGGGCUCCACCUGUUCAGGAGCUGAAGCCCAUGCUUUCCCACCAGCAUGUCACUCCCAGACCACCUCCC | 0.826 |
| GAUUUCAAGAAAGCCUCUUCUUGUUGCCUAGCUGAGUGGGAGAGUCAUUUUCCCCAGACACUACAUUUGGAUACAGGUGCCAAAGAACAUUAUUAAGGAAUUAUUUAGAA | 0.456 |
| AAGACAGCCUUCCACUAGAGGCUGAAGCCAGGAAGCAGACAGUUGCUGUCCUUAUUCCUGUUAAAAGCCUCUGGCACUAUGAACAACGCAGUGUGGGGACAGUGGGUGAC | 0.338 |
| CUGUGGGAUUUGUGGACACUUAAGAAACGGACUGAGUGGGAACCCUGCAGCCAGGGGAUGGGGAGCCUCUGCUCCCCCCAUGCUCCCACCCUGGCUGAGGGCCAGCCUCA | 0.551 |
| GUAAAGUCAGAAUGCGGGGCCAGGAGGGCCUCUUCCUCCCUCUUCCCUCCCAAGAAACCAGGUUGGAGAGGCCCAAGUCACUGGGGCCCACCCUUGCUAGGGUUUCCGUA | 0.329 |
| UGGCUUCCAUGAAUCAGUACUGUUGUUAAAAGCAGAGCUCUGCUGUUAAGAGGUUCUGUUUCUAAGGGACUGCUGAGUUAGAUUAGUAUAUACGUGGCAGUAGUUCAGCA | 5.66 |
| UAGAAGGUAUGUUGACAAAUAAGCCUCUUAGGUUACAAAGGAGUUUGGGGGGAAAAAAAUAUCCAUUGUGAAAAUGAAAGUACAGCCUAGCUCACCUGGGGCCUCCCUGC | 0.498 |
| UGACUGGAGCCACAGAUACAGAAUCUGUAUUGUUCUUACUGAAACACAGCAUGGAAUUAACAUUAAACUUAAAUAAAACAAACCUAAAUUAAAAAUGCCAAAUAUCGCGC | 1.13 |
| GAUAAAACUAAUGGCAGAAAAAGAAGUUGAGCAAUUUCUAUGUAAUGUACAGAUACUAGCAUUGCACAUAUAGUCUGCUUUCUGUUCCUCCAGAAUUUGAGUCCUGUUAA | 0.586 |
| GUUACAUGUUUUAGGAUAAACUAAUUUCUUUUGAGUUCAUAAAUCAUUUGUACCCAGAAUGUAUUAAUAUAUUGCUAUUAGGUUAAUCUGUUAACUGAAUGCUUUGAUCA | 0.45 |
| ACAAAUCUGAUAACUAUGCAGGUUUAAAUUUUCUUAUCUGAUUUUGGUAAGUAUUCCUUAGGUUUUUCUUUGAAAACCUGGGAUUGAGAGGUUGAUGAAUGGAAAUUCUU | 0.434 |

Series 2 — technique: DHFR PCA, deep sequencing; sample: yeast; together with: (+)-ABA 17 µM; reference: wild-type fitted maximum; direction: higher = stronger binding
Target: ABI1, truncated, D143A, DHFR fusion (Arabidopsis thaliana)
Notes: methotrexate growth selection, single substitutions
Parent: PYL1, truncated, DHFR fusion (Arabidopsis thaliana); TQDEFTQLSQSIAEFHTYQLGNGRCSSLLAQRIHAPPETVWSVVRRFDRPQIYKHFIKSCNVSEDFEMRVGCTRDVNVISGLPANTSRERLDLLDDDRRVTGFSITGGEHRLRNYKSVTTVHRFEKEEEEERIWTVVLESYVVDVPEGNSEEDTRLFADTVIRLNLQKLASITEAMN
| Variant | relative binding score [%] |
| --- | --- |
| I33Y | 9.5 |
| N77T | 92.9 |
| I105C | 48.5 |
| E128T | 92.7 |
| N85S | 90.1 |
| E127L | 83.1 |
| D153E | 94.4 |
| S87V | 25.7 |
| R155F | -1.39 |
| W41R | 7.14 |
| Q167K | 96.7 |
| V44Y | -6.13 |
| I172V | 96.2 |

Series 3 — technique: protein binding microarray; molecule type: double-stranded DNA, one strand shown; sample: in vitro; concentration: not given; reference: not given; direction: higher = stronger binding
Target: Histone acetyltransferase KAT6A, winged helix 1, GST fusion (KAT6A, Homo sapiens, UniProt Q92794, residues 1-85)
Notes: 8-mer, flanks averaged, mean of 2 arrays, mostly near background
Construct (chain): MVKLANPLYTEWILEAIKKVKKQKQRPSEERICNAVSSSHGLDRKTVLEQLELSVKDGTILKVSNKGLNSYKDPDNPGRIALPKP
| Oligonucleotide | E-score |
| --- | --- |
| AAGATATC | -0.224 |
| AGCGCTTG | 0.318 |
| GCGCACTA | 0.373 |
| ACCGTTAG | 0.103 |
| AATCCGTC | 0.171 |
| CAGACATC | -0.257 |
| CTCCATAC | -0.0586 |
| CGAGCCTC | 0.018 |
| AGAACGGG | 0.23 |
| GGGTGCCA | -0.0336 |
| CAAACCCA | -0.255 |
| CCTAGTAA | -0.00863 |
| CACTGTTA | -0.00651 |
| ATTGAGCG | 0.0225 |
| GGGTGAAC | -0.121 |
| CCCCGGAC | 0.1 |

Series 4 — technique: protein-binding microarray; molecule type: double-stranded DNA, one strand shown; sample: in vitro; concentration: 2540 nM top; notes: 60-bp whole probe; together with: salmon DNA 0.4 mg/ml; reference: random background probes; direction: higher = stronger binding; constant ends, left off below: GCCTAGCAC … GTCTTGATTCGCTTGACGCTGCTG
Target: Interferon regulatory factor 3, full length, phosphomimetic (IRF3, Homo sapiens, UniProt Q14653, residues 1-427, S386D/S396D/S398D/S402D/T404D/S405D)
Residues (chain): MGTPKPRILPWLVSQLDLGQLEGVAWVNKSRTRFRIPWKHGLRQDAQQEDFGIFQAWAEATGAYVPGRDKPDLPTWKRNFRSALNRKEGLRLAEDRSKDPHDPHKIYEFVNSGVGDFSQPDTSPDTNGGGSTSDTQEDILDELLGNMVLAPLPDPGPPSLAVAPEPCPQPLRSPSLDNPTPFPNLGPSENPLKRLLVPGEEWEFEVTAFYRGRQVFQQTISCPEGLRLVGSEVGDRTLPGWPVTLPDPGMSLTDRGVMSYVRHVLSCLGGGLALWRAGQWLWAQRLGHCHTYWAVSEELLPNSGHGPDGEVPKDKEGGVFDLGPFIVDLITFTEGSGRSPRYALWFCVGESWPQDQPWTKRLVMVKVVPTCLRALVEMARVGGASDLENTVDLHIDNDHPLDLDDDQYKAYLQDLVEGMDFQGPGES
| Oligonucleotide | fitted relative affinity |
| --- | --- |
| TTAGGACTGGACTATCGGTTGGTGCTA | -0.538 z-score |
| GACGTTATCCTTCTCCTGACGTGCTAG | 4.57 z-score |
| TTAGGTAACGGACTGGGTTAGTGCTAG | -0.25 z-score |
| AGAATTTCCACTTTGACTTAGTGCTAG | 2.02 z-score |
| GACGATTTCCTTATCCTGACGTGCTAG | 4.63 z-score |
| TTAGGACTGAGGACTGGGTTAGTGCTA | -1.01 z-score |
| TTTGGTTTCCTTATCCTTTAGTGCTAG | 8.78 z-score |
| TCAGTAATGCTTCTGTAACTGTGCTAG | -0.293 z-score |
| GACGAACTGGGGACTGGCGACGTGCTA | -0.683 z-score |
| TTAGATCGCAGACTGGATTAGTGCTAG | -0.345 z-score |
| ACCAGTTTTCTTTTCATTACGTGCTAG | 5.35 z-score |
| GACGCTATCGGGTTTCGGGACGTGCTA | 1.31 z-score |
| TTAGGTTTCGGGTATCGGGTAGTGCTA | 4.28 z-score |
| GCCGATATCAGTTTCGAGACGTGCTAG | 3.56 z-score |
| TTAGGTTTCGGTTCTGGTTAGTGCTAG | 10.9 z-score |
| CACGGTTTCGGGTATCGGGACGTGCTA | 4.09 z-score |
| GACGGATTCGGGTATCGGGACGTGCTA | 1.22 z-score |
| AACGGACTGCTACTGCTGACGTGCTAG | -0.612 z-score |
| TTAGGTATGGGTTTCGGTTAGTGCTAG | 3.18 z-score |
| TTAGGAATCGGACTGGGTTAGTGCTAG | -0.332 z-score |
| GACCGACTGGGTATCGGGACGTGCTAG | 0.344 z-score |
| GCCGGTTTCGGTATCGGGACGTGCTAG | 8.46 z-score |

Series 5 — technique: competition protein-binding microarray; molecule type: double-stranded DNA, one strand shown; sample: in vitro; concentration: 2 µM; together with: Cbf1 competitor, 0.05 µM; direction: higher = stronger binding; constant ends, left off below: … GTCTTGATTCGCTTGACGCTGCTG
Target: Phosphate system positive regulatory protein PHO4, full length, GST-tagged (PHO4, Saccharomyces cerevisiae, UniProt P07270, residues 1-312)
Notes: whole 60-bp probe, lowest competitor level
Construct (chain): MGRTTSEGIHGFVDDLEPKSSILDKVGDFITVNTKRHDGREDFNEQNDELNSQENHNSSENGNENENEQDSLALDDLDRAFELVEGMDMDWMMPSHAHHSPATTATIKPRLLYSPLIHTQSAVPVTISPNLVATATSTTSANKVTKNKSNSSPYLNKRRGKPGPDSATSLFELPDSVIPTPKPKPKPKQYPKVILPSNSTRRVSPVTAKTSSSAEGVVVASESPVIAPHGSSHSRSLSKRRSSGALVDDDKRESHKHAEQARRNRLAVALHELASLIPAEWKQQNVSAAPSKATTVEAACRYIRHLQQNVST
| Oligonucleotide | fluorescence intensity [a.u.] |
| --- | --- |
| CCGATAGTAAGGTTCGACGTGGTGAACCATCAACAA | 4420 |
| CGGGGTTAAGTTTGGATTGTGGGTGGCTTGCAGCAG | 4440 |
| CTTTCCCGATCTTGGAGAGTGGGTGTAGCACATTTG | 4500 |
| ATGAAATGCTGGAATCACCTGACTCACAAAACTGGG | 3850 |
| TCTCTTTGAAGCCGTCACGATAGTTACAGCTAGGGT | 4880 |
| GCGTTATCTCTATTAGACGTGCTTTTCAAGAATTGT | 5620 |
| AAACAAACCCTTACCCACGTGGCCGTATGGCTATGT | 20800 |
| TGTCCGACAGCCCATCACGCAGAGCAAGTTTAAGAC | 6010 |
| GTTACCAATTTGAGACTTGTAATATGGTTGGTTACC | 3980 |
| CATAACAGTCTAGAGCGCGTGGGTAATACGGCTGTT | 12000 |
| AGCCTCGGAAGTCCAAGCGTGTCCTCCTCGAAAAAG | 6370 |
| CTGCGCCCGCCGTAGACCGTGACAAGGAAGCTCACC | 5850 |
| TTGTAATGAGTTGGGCACATGGCGCAGTTGGTAGCG | 11500 |
| CTTCTGTAAATTTTTCACGTGCTATGACGCGCCCCG | 12300 |
| CTCAGTCTCTGGAAAAACGTGCTTTTTAACGGTTAT | 14300 |
| CGTCCTAGTGATTGGCTAGTGGGTGCCATGAGGAAG | 5870 |

Repeated from above (series 5):
| Oligonucleotide | fluorescence intensity [a.u.] |
| --- | --- |
| ATGAAATGCTGGAATCACCTGACTCACAAAACTGGG | 3850 |
| CTTTCCCGATCTTGGAGAGTGGGTGTAGCACATTTG | 4500 |
| TTGTAATGAGTTGGGCACATGGCGCAGTTGGTAGCG | 11500 |
| AAACAAACCCTTACCCACGTGGCCGTATGGCTATGT | 20800 |
| TCTCTTTGAAGCCGTCACGATAGTTACAGCTAGGGT | 4880 |
| AGCCTCGGAAGTCCAAGCGTGTCCTCCTCGAAAAAG | 6370 |
| CGTCCTAGTGATTGGCTAGTGGGTGCCATGAGGAAG | 5870 |
| TGTCCGACAGCCCATCACGCAGAGCAAGTTTAAGAC | 6010 |
